# Measured values gathered from unrelated publications.
# Numbered parts are unrelated; each lists some results of a single study. Positions count from the first letter of the parent shown.

# Study 1
# Target: RING finger protein unkempt homolog, zinc fingers 1-6, GST-SBP tag (UNK, Homo sapiens, UniProt Q9C0B0, residues 30-357)
# Sequence of UniProt Q9C0B0 (30-357, looked up): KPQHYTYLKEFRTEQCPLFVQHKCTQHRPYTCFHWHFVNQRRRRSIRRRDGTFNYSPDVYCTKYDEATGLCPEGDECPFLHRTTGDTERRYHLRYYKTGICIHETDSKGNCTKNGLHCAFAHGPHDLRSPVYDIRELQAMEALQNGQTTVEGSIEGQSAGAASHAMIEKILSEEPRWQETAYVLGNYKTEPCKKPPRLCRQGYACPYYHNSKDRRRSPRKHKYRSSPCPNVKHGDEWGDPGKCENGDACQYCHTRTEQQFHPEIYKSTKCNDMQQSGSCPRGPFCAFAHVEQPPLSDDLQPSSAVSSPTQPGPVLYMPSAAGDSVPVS
# Method: RNA Bind-n-Seq
# Form: RNA
# Sample: in vitro
# Concentration: not given
# Setting: RNA with constant flanks, ends assumed
# Baseline: input RNA pool
# Direction: higher = stronger binding
Strand,bound/input enrichment
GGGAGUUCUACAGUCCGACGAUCCUCCAGACACAAGUGGCUGAGAUGUCCCGAGUCAUACGUGAUCUGCAGUCCAGGAGUUGUUUCCGAUUUCAUCAUUCUAGGCCAAGUGAGAGCUCGUCAGUUCCUUGGGAUAUCUCCAGCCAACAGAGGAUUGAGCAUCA,0.278 ratio
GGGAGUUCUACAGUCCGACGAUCACAAAAAAAUGUUGUAGUUGCAGAACUUAGUUUAUAAAAACAAAGAAUGUGUAUUUCUUCAACCGCCGGGUAUUUGGAUUGUUCUCUUGAUAAUAUUUGAAUGUGACUCUUGGAUUUAAGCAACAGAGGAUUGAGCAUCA,0.934 ratio
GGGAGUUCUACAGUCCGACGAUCACAGUUGUGCCACAAGUGCCCACCUCUCCUAAAUCCAGCCUUAGCGUCCAACCUGGAUUCCCCGCUGAUCUUAACAGGACAUUGCAGCGCAAGUCUAUCACGCGGCAUGGCUCCCUGUCCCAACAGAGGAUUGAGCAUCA,0.168 ratio
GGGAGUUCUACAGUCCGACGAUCAAAGGAAUUACCGAACAGCAAAAAGAAGGUCUUGAGAUAGUGAAAAUGGUGAUGAUAUCUUCCGAAGGUGAAGAUGGGUUGGAUGAAAUUUAUUCAUUCAGUGAGAGUCUGAGAAAACUGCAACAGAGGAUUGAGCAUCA,0.424 ratio
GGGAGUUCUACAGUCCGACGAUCUAACAUUUUUUUAAAAUAUUGAUUGAUUGAUUGAUUGAUUCUAUGUAUGUGAGUACACUGCCGCUGUACAGAUGGUUGUGAGCCUUCAUGUGGUUGUUGGGGAUUGAAUUUUAGGACCUCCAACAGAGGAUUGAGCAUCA,0.881 ratio
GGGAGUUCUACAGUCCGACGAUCAUCCCCAAUGUUCUGCGCCGCAUUCGGGAGUCUUUCUUUCGCGUGGUGCCGCAGUUUGCCGUGUUUUAUCUUAUCUACACAUGGGGGACUGAAGAGUUCGAGAGAUCCAAGAGGAAGAAUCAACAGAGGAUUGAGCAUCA,0.106 ratio
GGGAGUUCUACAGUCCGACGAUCCAUGACUUAAAUAAUUCUGAAAGAGUUCAGAAAAUGAAAAACUCACAGAAACCUCAGAAGACCGAUUCAGAAAUAAGUCCCAAGAAGGAUAAUGAAGAAUUUCUACAAAAUAAAAAAAAGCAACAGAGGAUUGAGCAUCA,0.14 ratio
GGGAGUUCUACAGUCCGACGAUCCUGUGUAGUCGCAGUGACACUAUCGAUACUGUUUCUGUGCCUUAUGUUUUUCGGUAUUUUGCCGCUGAACUGGCAGCUAUGAACAUCAAAGUGAAACUGGAUGUUGUUUAACUUGAUGUUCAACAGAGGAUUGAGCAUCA,0.249 ratio
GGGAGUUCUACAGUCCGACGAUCACUUAGCAAGGGCUCUGAAAUGACAAAGAGAACGAGCACCACAAAUGAGAACAGGAUCAUUUCCGUAAAUACAGCUUUAUCCCAAAAGCUUUAACUGUAUUGGGAAAACUUAAAAAAUAGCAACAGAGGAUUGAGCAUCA,0.608 ratio
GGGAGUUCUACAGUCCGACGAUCUAUGAAGUAUUUCAGACCCAGUUGUAGAUCAUCACUCCGCCACUCUCUCCUUUAUUGCCUACCCGUUAUUUAAAUUGGACUUUUAAUAUCCUACCAGCUGCUCUUCAGACACACAUGGUGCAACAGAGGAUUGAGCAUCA,1.12 ratio
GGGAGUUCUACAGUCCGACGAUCUUUACAACGCACCAAGAACAUUCUAUUCGCAGAAAUUUCUUAAAAACAGGUACUAAAUUCCGCAACUUUAUUCACGAAGAACACCAGUCCAAUGGGGGUGCUCUUGUCCUUCAUGCAUACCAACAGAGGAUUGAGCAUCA,0.233 ratio

# Study 2
# Target: ABI1, truncated, D143A, DHFR fusion (Arabidopsis thaliana)
# Method: DHFR PCA, deep sequencing
# Sample: yeast
# Setting: methotrexate growth selection, single substitutions
# Together with: (+)-ABA 0 µM
# Baseline: wild-type fitted maximum
# Direction: higher = stronger binding
# Starting sequence: PYL1, truncated, DHFR fusion (Arabidopsis thaliana); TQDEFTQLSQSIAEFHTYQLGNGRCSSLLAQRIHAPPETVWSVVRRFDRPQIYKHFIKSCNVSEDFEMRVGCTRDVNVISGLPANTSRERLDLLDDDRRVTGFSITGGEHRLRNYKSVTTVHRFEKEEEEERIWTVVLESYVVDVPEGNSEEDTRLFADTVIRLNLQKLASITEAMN
Variant,relative binding score [%]
E131R,45.3
Q10F,1.72
S42T,4.6
V100K,-2.85
N85L,52.6
S9M,21.2
K116D,-1.37
T1R,21.4
L169W,1.37
L91D,1.44
P83H,17
S117P,5.54
E125I,18.8
D65F,-5.89
A84G,39.9
D153G,1.46
C72L,-0.659
R46V,-4.66
I57D,0.668
L169N,-5.22
S80W,52.8
I162H,7.29
S9P,0.264
A13Q,35.2
A170G,-2.88

# Study 3
# Target: Interferon regulatory factor 5, full length, phosphomimetic (IRF5, Homo sapiens, UniProt Q13568-2, residues 1-514, K96S/S451D/S453D/S456D/S462D)
# Method: protein-binding microarray
# Form: double-stranded DNA, one strand shown
# Sample: in vitro
# Concentration: 250 nM
# Setting: 60-bp whole probe
# Together with: salmon DNA 0.4 mg/ml
# Baseline: random background probes
# Direction: higher = stronger binding
# Shared flanks, not repeated: GCCTAGCAC … GTCTTGATTCGCTTGACGCTGCTG
Strand,log fluorescence
GACGGTTTCCTTAGCCTGACGTGCTAG,0.418 z-score
GACGATATCGGGTATGGAGACGTGCTA,1.73 z-score
TTTGATATCGGGACTGGATTAGTGCTA,2.09 z-score
GACGGACTTGACTATCGGGACGTGCTA,1.28 z-score
TTTGATCTCAGTTTCGATTAGTGCTAG,9.61 z-score
GACCAGGGGCCACAGCCTCAGTGCTAG,-0.786 z-score
TCAGCTACACATCTCACACTGTGCTAG,-0.000364 z-score
TCATTTAGTAGTTTCTAACTGTGCTAG,1.16 z-score
TCACACTTGTGTTTGGGACTGTGCTAG,0.194 z-score
TTAGGTTTCCTCCTGCTTTAGTGCTAG,0.337 z-score
TTAGAACTGGGGACTGGAGTAGTGCTA,-0.221 z-score
TTAGGTATCGCCTATCGGTTAGTGCTA,3.91 z-score
GACGAACTGGGGTTGCGAGACGTGCTA,-0.613 z-score
CAGCACAGCTGACTACAAGCGTGCTAG,-0.688 z-score
TTAGGTTTCCTTCCCCTTTAGTGCTAG,0.829 z-score
TCAATTTTCCAAATGCCACTGTGCTAG,0.575 z-score
CAAACACTAGTTTTCATTTTGTGCTAG,1.82 z-score
TTAGGATTGCTTTTCCTTTAGTGCTAG,0.559 z-score

# Study 4
# Target: RNA binding protein fox-1 homolog 2, RRM domain, GST-SBP tag (RBFOX2, Homo sapiens, UniProt O43251-10, residues 100-194)
# Method: RNA Bind-n-Seq
# Form: RNA
# Sample: in vitro
# Concentration: 365 nM
# Setting: natural RNA segment, single round, ends assumed
# Baseline: no-protein control
# Direction: higher = stronger binding
# Construct (chain): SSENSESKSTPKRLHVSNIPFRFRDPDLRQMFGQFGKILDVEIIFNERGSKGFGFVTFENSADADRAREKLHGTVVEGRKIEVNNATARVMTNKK
Strand,RBNS enrichment (R)
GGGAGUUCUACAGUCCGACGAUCAAGGCAAGAUUCUAACCUAUACAGCCUGAUGCUAGAGCCUGUGAUGACCACUGUGCUUUGCUACCAACUGACUGAACUCCAGCCAGCCAAAUGAAACCAUGUACCCUUGGUGGAAUUCUCGGGUGCCAA,0.456
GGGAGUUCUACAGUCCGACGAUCCAGCUUGGGCUCUCCUGGCGCCCCGUAGCAUCGAGUGUCUUCUUUGUCUUCUUUCUCUCCUCACCCAACUCCCUUUGCCUCUCCCCAAACCGGGCCGCCAGGAUCCCUCCUGGAAUUCUCGGGUGCCAA,1.41
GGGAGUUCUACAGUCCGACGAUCAGCUUGGGAAAUAGCCCUUGGUGUGGGUUUUAUCUCUGGUUUGUGUUCUCCGUGGUGGAAUUGACCGAAAGCUCUAUGUUUUCGUUAAUAAAGGGCAACUUAGCCAAGUUUGGAAUUCUCGGGUGCCAA,0.317
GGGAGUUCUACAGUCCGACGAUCCAUUUUGGUGUGCCCAUUCCUUCUUUUCCUGAACUCACAGUCUUGGGGUGUUUCUGCACUUGGCUAUGUGUGUCUUGUCUGAUGUCUGUCUUCUGUAGCUUUGCCUCUAUUGGAAUUCUCGGGUGCCAA,0.417
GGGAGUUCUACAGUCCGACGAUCUGCUGGACUAGCUUAAGACCAAUGCAGUAGCUUAUUUCCAAGCCUUGCAAAGUAUAUAAUAUCUAAGAGGAAAGGUUUUGUCAUCCCAGCGUUGUCCACUUUGUGGGGCUUGGAAUUCUCGGGUGCCAA,0.436
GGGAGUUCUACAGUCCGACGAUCACCAGUAGGUAGUGUCAAGCCAGAGAUUCGGGGCAGUAGAUAAAUGUUCAUUUUACUGAUGCACUUUAGUUUUUGGUCUGUUACCUGUUUUCCAGAAAUUUGUGGCCUUUUGGAAUUCUCGGGUGCCAA,0.57
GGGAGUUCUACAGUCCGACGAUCCGUUGGAAAUGUGUGCUUUUUAGUGUUUACUAAAGUGAUAAGAAAAUAAAGCAUUCAAUACACUAUAGAUUCCAAAACAUAACAUUGCACCAAAUAGAAAUGUAUAUUUUUGGAAUUCUCGGGUGCCAA,0.686
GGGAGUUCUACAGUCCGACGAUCCAAGGAGUUUUGAAAAGAAAUGCAAAGAACAAAACUACAACACUAUUUUUUAAAAAGUUGAGUAUCUGAGUUAAAAUUUCCAAAUCUUUAUUUUACACCACCUUAAAAAUUGGAAUUCUCGGGUGCCAA,0.892
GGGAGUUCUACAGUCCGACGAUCGGAAGAGGGUCUGCUGGGGGUUCCUGUGGCCUUCCGCUGUGUCUGGACAACACUAACACAGGACCCUUGUUGCUACCUGGUUCUGACUCCAGACAACCACAAUGCCAGGUUGGAAUUCUCGGGUGCCAA,0.399
